Published values from different studies.
Each line is one published result; not all experiments were run side by side. ± marks the error that the study gave.
Cell line: Hep3B

| SMILES | assay | conditions | endpoint | result |
| --- | --- | --- | --- | --- |
| Cc1ccc(NC(=O)c2cccc(C(F)(F)F)c2)cc1N1Cc2cnc(Nc3ccccc3)nc2N(C)C1=O | cell growth or viability, ATP luminescence | 72 h | GI50 | 0.847 µM |
| COC1=C(OC)C(O)C(CC=C(C)CCC=C(C)CCC=C(C)C(=O)O)C(C)C1=O (stereo not drawn) | cell growth or viability, MTS | 72 h | IC50 | > 25 µM |
| CCOC(=O)/C=C/C(=O)NNC(=O)c1cc2ccccc2cn1 | HIF-1α induction, immunoblot | 6 h | minimum effective concentration | 25 µM |
| CC1(C)CCCC(C)(C2CCC3(C)C2C(O)CC2C4(C)CCC(OC(=O)NCc5ccccc5)C(C)(C)C4C(OC(=O)NCc4ccccc4)CC23C)O1 (stereo not drawn) | HRE reporter gene, inhibitor | 24 h, hypoxia | IC50 | > 30 µM |
| Cc1ccc(Nc2ncc3c(n2)N(C)C(=O)N(c2cc(NC(=O)c4ccc(CN5CCN(C)CC5)c(C(F)(F)F)c4)ccc2C)C3)cn1 | cell growth or viability, ATP luminescence | 72 h | GI50 | 0.35 µM |
| CC1(C)CCCC(C)(C2CCC3(C)C2C(O)CC2C4(C)CCC(OC(=O)NCc5ccccc5)C(C)(C)C4C(O)CC23C)O1 (stereo not drawn) | HRE reporter gene, inhibitor | 24 h, hypoxia | IC50 | 11.22 ± 0.08 µM |
| O=[N+]([O-])c1c(Nc2cc(F)cc(Cl)c2)ccc2nonc12 | refers to: PGK1 | 1 or 10 µM, 6 or 12 h, 1% O2 | mRNA level | no effect |
| Cc1ccc(NC(=O)c2cccc(C(F)(F)F)c2)cc1N1Cc2cnc(N)nc2N(C)C1=O | cell growth or viability, ATP luminescence | 72 h | GI50 | 2.7 µM |
| CC1(C)CCCC(C)(C2CCC3(C)C2C(O)CC2C4(C)CCC(OC(=O)Nc5ccccc5)C(C)(C)C4C(OC(=O)Nc4ccccc4)CC23C)O1 (stereo not drawn) | HRE reporter gene, inhibitor | 24 h, hypoxia | IC50 | 15.86 ± 0.12 µM |

Some of these lines once more:
| SMILES | assay | conditions | endpoint | result |
| --- | --- | --- | --- | --- |
| Cc1ccc(NC(=O)c2cccc(C(F)(F)F)c2)cc1N1Cc2cnc(N)nc2N(C)C1=O | cell growth or viability, ATP luminescence | 72 h | GI50 | 2.7 µM |
